Published values gathered from unrelated publications.
A part holds a random share of what one study measured.

Block 1
Target: Histone acetyltransferase KAT6A, both winged helices, GST fusion (KAT6A, Homo sapiens, UniProt Q92794, residues 1-181)
Technique: protein binding microarray
Molecule type: double-stranded DNA, one strand shown
Medium: in vitro
Concentration: not given
Setting: 8-mer, flanks averaged, mean of 2 arrays, mostly near background
Baseline: not given
Reading: higher = stronger binding
Endpoint: E-score
Construct (chain): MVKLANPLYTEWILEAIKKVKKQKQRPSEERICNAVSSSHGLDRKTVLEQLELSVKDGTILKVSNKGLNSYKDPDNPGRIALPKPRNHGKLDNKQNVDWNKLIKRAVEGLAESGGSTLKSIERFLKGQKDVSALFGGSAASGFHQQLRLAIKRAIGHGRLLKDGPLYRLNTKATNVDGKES
CTGTCCGC: 0.157
GTAGGAGA: -0.0893
GGCACTAA: -0.0479
AGGGGACA: -0.101
GACCTCTA: 0.0182
AGCACGTC: -0.0304
ACTCAACC: -0.0204
CAGCGGTC: 0.1
CAGCGAGC: 0.0629
CCCTTATC: -0.149
CAGACTTA: -0.104
GAGTCCAA: -0.196
AAGCACGA: -0.269
GCAACAAA: -0.121
AGGACTAA: -0.0801
AGATTTTC: -0.226
ATAGCGGA: 0.213
CATTACAA: -0.056
AGGAGAAT: -0.152
ATAGTCAA: -0.114

Block 2
Target: RING finger protein unkempt homolog, zinc fingers 1-6, GST-SBP tag (UNK, Homo sapiens, UniProt Q9C0B0, residues 30-357)
Technique: RNA Bind-n-Seq
Molecule type: RNA
Medium: in vitro
Concentration: not given
Setting: RNA with constant flanks, human and mouse sites, ends assumed
Baseline: input RNA pool
Reading: higher = stronger binding
Endpoint: bound/input enrichment
All sequences stand within: GGGAGUUCUACAGUCCGACGAUC … CAACAGAGGAUUGAGCAUCA
Target sequence (chain): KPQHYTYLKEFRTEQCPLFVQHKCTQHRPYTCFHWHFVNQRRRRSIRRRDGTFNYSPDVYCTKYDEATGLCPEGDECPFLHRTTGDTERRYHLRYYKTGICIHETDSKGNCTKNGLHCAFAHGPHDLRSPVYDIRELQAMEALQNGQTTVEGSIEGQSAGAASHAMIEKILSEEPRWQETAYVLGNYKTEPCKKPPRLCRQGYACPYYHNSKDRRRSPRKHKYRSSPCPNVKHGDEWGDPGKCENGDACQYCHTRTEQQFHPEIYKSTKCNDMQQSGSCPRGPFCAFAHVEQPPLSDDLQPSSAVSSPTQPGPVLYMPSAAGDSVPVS
AAGUUAGAGAUAAUGUCUACUGGAAAUUUUACCUUUGAGUCAAGUUUUGUGUCAGUGCUUUAGCAUUUUUGAGAAUGUGUUUGAUAUCACAGUGUUUGUAAAUUCGAUGAAAAUGUAUUU: 1.19 ratio
GAAUUUGGAGACUUUGAUAUUAAAACUGUACUUCAGGAGAUUAAACGAGGAAAAAGAAUGAAAUGUACACUUUGCAGUCAGCCUGGUGCUACUAUUGGAUGUGAAAUAAAAGCCUGUGUU: 0.354 ratio
GGGAAGGAGAGCACGGGCUGGACGAACACAAGCUCCACAUGUAUCUUUCUGCCUUGCAGUCCUUGAUCCCAUCUCUCUUUGCAUUAGUGCUACAGAACGCACCUUUCUCCAGCAAAGCCA: 0.154 ratio
GAUAUUUGUAAAUAAAGGUAGAAAUAUUAGAUCCAUUUCUGCAGAACUUACUGUACAGUUUAGUUGGAGUGUAGCACUGAAGAACUGUCAGCUCAGCGUUGACUGAGGAGAUAGUGAAAA: 0.92 ratio
AUUUUUAGUAAAUGCAAGUAAGAACAUCAUCAAAGUUCACUUUGUAUUGUACCCUGUAAAACUGUGUGUUUGUGUGCUUUCAAAGAUGUUGGGAUUUUAUUUAUCUGGGGACAGUGUGUA: 0.62 ratio
ACAAUUGGUUUUAACGUGGAAACUGUAGAAUAUAAAAAUCUAAAAUUCACUAUUUGGGAUGUAGGUGGAAAACACAAAUUAAGACCAUUGUGGAAACAUUAUUACCUCAAUACUCAAGCU: 0.265 ratio
CCCCUUCCCCGGGGCUUGAGACUUUGGGGGUGCAGACAGGGACUUUCCUCUGCCAGCAGCACAGAAAAGGAAGCUGCAGAAAGGCUCGAGGAAGGGGAGUUCCCCGUUCGAUCUUGGGGG: 0.0626 ratio
UUUUAGAGAAAAUACUGUUACUUGGCAUUAAUUGUCCAUUUACAGUGUUCUGUUAAGUUCCUCAUGCUAUGCACCUUACAUAAUUUCCCUAAAGAACAGUCAUCUAUCACUGUGGUGUUA: 0.244 ratio
CUCCCCCAAGCAGAUCCUGGGAUGGGUGAGAGAAAAUGGGGAAAGAGGGUGUCCCUCCCAUCCCCCUUCUGCCCAGCUCUCAUCAAUUGUCAGACCCACCAGAGCUGAGGGCAGAGGGAC: 0.126 ratio
AACAACUUUCUUCAAACGCUAAAUCAAGCUUGGAAUGAUCAUCAAACAGCUAUGGUGAUGAUUAGAGACAUACUAAUGUACAUGGACCGUGUGUAUGUACAACAAAAUAAUGUGGAGAAC: 0.149 ratio
CUCAGCAACAAAAUGCUUCAACAAGUUCCAGAAAACAUAAAUUUUCCUGCUGAAGAAGAGAAAAUCUUGGAGUUUUGGACUGAAUUUAAUUGUUUUCAGGAAUGCUUAAAGCAAUCAAAA: 0.205 ratio

Block 3
Target: Interferon regulatory factor 7, full length, phosphomimetic (IRF7, Homo sapiens, UniProt Q92985, residues 1-503, S101K/S471D/S472D/S475D/S476D/S477D/S483D/S484D/S487D)
Technique: protein-binding microarray
Molecule type: double-stranded DNA, one strand shown
Medium: in vitro
Concentration: 250 nM
Setting: 60-bp whole probe
With: salmon DNA 0.4 mg/ml
Baseline: random background probes
Reading: higher = stronger binding
Endpoint: log fluorescence
All sequences stand within: GCCTAGCAC … GTCTTGATTCGCTTGACGCTGCTG
Residues (chain): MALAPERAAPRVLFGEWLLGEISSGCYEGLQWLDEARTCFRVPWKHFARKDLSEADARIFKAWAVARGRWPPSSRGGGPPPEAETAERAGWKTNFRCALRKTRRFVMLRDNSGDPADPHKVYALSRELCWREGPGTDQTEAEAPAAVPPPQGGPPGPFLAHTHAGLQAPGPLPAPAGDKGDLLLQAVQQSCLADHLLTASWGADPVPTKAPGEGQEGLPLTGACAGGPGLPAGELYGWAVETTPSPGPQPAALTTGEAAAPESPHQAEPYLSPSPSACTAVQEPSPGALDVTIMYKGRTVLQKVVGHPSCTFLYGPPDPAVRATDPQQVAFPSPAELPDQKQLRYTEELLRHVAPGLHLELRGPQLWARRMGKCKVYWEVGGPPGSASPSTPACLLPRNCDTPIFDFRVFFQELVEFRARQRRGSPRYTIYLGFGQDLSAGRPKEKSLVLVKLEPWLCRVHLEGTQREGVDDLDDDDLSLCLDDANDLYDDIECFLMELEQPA
TCAGATTTTTAGTTAGAACTGTGCTAG: 0.144 z-score
TCACTTAGGTTTTCTGGTACTGTGCTA: 0.134 z-score
TTAGGTATCGGTATCGGTTTGTGCTAG: 5.7 z-score
TTAGGTCTCCTTATCCTTCAGTGCTAG: 0.189 z-score
GGTCCTCTAGGAATGTAACTGTGCTAG: 0.033 z-score
TTAGCACTGGGGTATCGGTTAGTGCTA: -0.116 z-score
ATGTTTTTCATTTTTTTTCAGTGCTAG: 1.91 z-score
TAAGGACTGCTTTTCCTTTAGTGCTAG: 1.46 z-score
TTAGATTTCAGTTCCAATTAGTGCTAG: 1.08 z-score
CGGCCTCTAGGTTTTCTGAAGTGCTAG: -0.41 z-score
TTAGATATCAGTCCCGATTAGTGCTAG: 0.192 z-score
CTTGGTAAATTTAGCCGACGGTGCTAG: -0.286 z-score
GACGATTTCGGGTTTCGAGAAGTGCTA: 3.07 z-score
TCAAGTTTTTATTTTCTACTGTGCTAG: 1.23 z-score
GACGATATCAGACTGGCGACGTGCTAG: -0.487 z-score
TCACCTCCCTGTTTCCAACTGTGCTAG: 0.612 z-score
AATAGCTTTTCATTTTTTAACGTGCTA: 0.756 z-score
GAGGGACTGGGTATCGGGACGTGCTAG: 0.131 z-score
GACAGTATCCTTTTCCTGACGTGCTAG: 1.27 z-score
TCAGTTTTGAGTTTTCCACTGTGCTAG: 1.31 z-score
CCACACACCATTCTCGGGACGTGCTAG: 0.249 z-score
GACGGTCTCGGTCTCGGGACGTGCTAG: 0.872 z-score
TTAGGACTGCTGATCCTTTAGTGCTAG: -0.518 z-score
GGCGGTTTCGGTCTCGGGACGTGCTAG: 7.72 z-score
TTAGAAGTGAGACTGGATTAGTGCTAG: -0.177 z-score

Block 4
Target: Sal-like protein 4, full length isoform B (SALL4, Homo sapiens, UniProt Q9UJQ4-2, residues 1-616)
Technique: universal PBM
Molecule type: double-stranded DNA, one strand shown
Medium: in vitro
Concentration: not given
Setting: 8-mer, flanks averaged, mean of replicates
Reading: higher = stronger binding
Endpoint: E-score
Residues (chain): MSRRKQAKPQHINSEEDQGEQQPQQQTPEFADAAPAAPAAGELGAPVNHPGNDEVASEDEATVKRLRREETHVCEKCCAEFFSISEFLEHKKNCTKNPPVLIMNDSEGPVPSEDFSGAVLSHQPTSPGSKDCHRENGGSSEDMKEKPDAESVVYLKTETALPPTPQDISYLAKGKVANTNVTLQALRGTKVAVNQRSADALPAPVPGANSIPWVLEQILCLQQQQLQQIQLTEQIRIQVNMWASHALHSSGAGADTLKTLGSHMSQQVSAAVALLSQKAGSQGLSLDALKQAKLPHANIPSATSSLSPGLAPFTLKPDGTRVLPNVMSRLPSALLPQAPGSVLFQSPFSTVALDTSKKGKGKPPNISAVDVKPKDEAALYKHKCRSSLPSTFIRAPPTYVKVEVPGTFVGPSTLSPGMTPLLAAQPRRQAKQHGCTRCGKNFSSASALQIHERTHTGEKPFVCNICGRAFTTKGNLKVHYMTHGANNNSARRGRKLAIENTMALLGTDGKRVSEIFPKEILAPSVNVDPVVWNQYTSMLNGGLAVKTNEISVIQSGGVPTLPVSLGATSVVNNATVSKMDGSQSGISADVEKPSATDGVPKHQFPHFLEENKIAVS
AGTCTCGG: -0.268
AACCTAGC: -0.0962
AAACTCGC: -0.0906
ACCTGCTG: -0.0287
GTGCCGAA: -0.206
AATCATTC: 0.235
TCCCAACA: -0.0131
TCGATTCA: 0.0445
CGCAGAGA: -0.182
CCAGGTAA: -0.0255
GAAGTACA: 0.0529
CACTGGAC: -0.101
ATGCTTAA: 0.206
ATCGTCCC: 0.0483
ACGTTCAG: -0.134
ACTAACCG: -0.0597
CAGGGTGA: -0.111
CGCCAGAG: -0.218
GCGGCCGC: -0.345
CTGCGAAC: -0.09
ATTTGTAC: 0.239

Repeated from above (block 3):
TCACCTCCCTGTTTCCAACTGTGCTAG: 0.612 z-score
AATAGCTTTTCATTTTTTAACGTGCTA: 0.756 z-score
TAAGGACTGCTTTTCCTTTAGTGCTAG: 1.46 z-score
ATGTTTTTCATTTTTTTTCAGTGCTAG: 1.91 z-score
TCAAGTTTTTATTTTCTACTGTGCTAG: 1.23 z-score
CGGCCTCTAGGTTTTCTGAAGTGCTAG: -0.41 z-score
GACGATTTCGGGTTTCGAGAAGTGCTA: 3.07 z-score
TTAGATTTCAGTTCCAATTAGTGCTAG: 1.08 z-score
CTTGGTAAATTTAGCCGACGGTGCTAG: -0.286 z-score
TTAGGTATCGGTATCGGTTTGTGCTAG: 5.7 z-score
TCAGATTTTTAGTTAGAACTGTGCTAG: 0.144 z-score
TTAGGTCTCCTTATCCTTCAGTGCTAG: 0.189 z-score
